Results gathered from unrelated publications.
Each numbered part is a random draw from the data of one study; scales do not carry over between parts.
Chain of UniProt Q13255 (whole entry, looked up): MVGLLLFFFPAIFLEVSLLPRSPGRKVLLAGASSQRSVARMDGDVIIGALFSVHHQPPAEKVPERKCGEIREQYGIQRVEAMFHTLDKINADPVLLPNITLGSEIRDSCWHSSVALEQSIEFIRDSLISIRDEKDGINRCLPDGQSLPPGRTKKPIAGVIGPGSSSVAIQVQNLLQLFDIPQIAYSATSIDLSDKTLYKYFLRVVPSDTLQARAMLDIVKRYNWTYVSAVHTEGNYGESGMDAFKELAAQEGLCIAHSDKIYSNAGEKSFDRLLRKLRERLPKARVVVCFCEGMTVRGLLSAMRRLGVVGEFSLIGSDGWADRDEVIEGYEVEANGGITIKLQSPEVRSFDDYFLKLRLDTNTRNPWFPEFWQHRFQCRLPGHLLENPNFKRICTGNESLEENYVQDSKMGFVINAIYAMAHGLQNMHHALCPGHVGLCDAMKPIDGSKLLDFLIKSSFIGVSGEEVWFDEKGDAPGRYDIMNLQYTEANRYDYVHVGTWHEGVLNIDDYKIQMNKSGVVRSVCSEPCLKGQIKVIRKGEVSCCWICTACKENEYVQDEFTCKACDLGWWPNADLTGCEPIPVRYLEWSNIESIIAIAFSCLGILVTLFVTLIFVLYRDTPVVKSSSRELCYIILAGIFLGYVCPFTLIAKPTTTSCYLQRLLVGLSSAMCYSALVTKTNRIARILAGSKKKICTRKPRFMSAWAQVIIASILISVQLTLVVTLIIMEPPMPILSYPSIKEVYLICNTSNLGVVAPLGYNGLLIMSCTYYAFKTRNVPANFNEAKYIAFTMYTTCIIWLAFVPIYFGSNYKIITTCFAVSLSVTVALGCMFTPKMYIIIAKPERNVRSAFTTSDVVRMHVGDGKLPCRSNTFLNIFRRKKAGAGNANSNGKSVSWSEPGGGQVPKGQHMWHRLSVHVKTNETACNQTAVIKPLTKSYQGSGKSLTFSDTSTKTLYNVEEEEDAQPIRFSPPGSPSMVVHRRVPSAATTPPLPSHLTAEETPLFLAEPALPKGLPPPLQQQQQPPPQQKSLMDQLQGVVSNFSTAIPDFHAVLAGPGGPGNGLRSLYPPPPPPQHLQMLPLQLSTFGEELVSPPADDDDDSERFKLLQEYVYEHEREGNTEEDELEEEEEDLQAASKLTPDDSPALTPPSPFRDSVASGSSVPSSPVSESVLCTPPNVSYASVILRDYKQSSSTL
Chain of UniProt P49685 (whole entry, looked up): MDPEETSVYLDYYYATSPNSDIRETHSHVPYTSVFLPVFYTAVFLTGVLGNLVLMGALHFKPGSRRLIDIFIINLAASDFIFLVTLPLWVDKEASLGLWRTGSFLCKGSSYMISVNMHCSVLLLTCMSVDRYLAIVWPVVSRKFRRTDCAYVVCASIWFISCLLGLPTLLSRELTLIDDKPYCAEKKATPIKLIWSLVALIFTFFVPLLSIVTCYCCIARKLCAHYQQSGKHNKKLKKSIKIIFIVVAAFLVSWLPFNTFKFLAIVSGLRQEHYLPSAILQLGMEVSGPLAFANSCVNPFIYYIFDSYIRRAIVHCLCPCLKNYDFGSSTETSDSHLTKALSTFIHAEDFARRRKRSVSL
Chain of UniProt P21709 (whole entry, looked up): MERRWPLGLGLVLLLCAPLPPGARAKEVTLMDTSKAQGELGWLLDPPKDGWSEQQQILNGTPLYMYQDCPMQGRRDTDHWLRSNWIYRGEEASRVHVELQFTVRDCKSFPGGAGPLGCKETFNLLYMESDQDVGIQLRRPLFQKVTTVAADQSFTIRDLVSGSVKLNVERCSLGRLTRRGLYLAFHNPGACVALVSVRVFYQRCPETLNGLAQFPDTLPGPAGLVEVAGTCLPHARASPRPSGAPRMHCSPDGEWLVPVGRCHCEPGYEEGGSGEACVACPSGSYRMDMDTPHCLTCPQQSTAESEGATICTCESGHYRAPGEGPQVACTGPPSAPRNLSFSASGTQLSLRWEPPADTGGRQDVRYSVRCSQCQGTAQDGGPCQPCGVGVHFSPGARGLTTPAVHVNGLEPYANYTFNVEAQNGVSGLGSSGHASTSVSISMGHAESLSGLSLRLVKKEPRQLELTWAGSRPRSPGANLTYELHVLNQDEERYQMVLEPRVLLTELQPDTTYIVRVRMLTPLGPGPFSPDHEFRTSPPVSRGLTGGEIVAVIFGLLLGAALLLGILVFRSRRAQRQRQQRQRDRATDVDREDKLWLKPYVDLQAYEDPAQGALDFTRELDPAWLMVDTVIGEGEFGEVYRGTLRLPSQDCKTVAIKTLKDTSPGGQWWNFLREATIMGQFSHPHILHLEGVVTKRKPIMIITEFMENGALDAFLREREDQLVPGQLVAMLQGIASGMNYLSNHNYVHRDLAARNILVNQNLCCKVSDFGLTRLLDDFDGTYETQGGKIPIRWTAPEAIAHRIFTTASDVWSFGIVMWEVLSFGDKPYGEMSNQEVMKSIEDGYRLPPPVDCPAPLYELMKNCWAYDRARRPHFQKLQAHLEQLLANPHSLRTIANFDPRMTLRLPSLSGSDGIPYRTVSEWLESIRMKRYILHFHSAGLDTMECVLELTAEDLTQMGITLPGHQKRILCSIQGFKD
Chain of UniProt Q9NZH0 (whole entry, looked up): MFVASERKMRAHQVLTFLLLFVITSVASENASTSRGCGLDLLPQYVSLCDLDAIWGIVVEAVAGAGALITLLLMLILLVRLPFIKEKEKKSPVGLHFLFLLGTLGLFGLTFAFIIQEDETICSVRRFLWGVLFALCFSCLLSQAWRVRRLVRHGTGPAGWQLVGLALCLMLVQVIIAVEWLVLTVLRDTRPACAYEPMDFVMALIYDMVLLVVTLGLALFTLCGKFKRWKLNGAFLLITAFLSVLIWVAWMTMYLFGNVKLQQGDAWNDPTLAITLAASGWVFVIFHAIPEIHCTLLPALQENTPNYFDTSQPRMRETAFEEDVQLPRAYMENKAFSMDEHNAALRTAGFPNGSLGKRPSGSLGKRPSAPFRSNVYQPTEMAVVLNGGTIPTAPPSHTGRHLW
Chain of UniProt P21452 (whole entry, looked up): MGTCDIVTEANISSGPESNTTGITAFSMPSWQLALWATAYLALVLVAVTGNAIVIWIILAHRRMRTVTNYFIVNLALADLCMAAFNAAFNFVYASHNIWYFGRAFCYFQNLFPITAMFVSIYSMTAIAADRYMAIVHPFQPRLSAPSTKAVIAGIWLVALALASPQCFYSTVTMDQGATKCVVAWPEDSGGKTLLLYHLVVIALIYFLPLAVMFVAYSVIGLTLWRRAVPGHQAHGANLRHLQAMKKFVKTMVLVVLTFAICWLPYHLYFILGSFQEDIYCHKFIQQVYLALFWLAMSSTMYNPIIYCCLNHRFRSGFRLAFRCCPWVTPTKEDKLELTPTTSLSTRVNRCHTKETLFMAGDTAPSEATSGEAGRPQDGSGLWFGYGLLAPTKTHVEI
Chain of UniProt P28222 (whole entry, looked up): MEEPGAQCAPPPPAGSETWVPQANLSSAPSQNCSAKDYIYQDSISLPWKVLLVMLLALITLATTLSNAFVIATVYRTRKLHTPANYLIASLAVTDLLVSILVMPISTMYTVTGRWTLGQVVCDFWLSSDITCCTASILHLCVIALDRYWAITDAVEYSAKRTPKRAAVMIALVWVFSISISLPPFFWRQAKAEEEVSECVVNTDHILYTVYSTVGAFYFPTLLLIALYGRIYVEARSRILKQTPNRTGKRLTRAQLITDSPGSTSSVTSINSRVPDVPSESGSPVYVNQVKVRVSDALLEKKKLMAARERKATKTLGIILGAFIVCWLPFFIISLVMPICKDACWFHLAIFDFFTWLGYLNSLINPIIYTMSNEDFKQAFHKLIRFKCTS
Chain of UniProt Q9NQ84 (whole entry, looked up): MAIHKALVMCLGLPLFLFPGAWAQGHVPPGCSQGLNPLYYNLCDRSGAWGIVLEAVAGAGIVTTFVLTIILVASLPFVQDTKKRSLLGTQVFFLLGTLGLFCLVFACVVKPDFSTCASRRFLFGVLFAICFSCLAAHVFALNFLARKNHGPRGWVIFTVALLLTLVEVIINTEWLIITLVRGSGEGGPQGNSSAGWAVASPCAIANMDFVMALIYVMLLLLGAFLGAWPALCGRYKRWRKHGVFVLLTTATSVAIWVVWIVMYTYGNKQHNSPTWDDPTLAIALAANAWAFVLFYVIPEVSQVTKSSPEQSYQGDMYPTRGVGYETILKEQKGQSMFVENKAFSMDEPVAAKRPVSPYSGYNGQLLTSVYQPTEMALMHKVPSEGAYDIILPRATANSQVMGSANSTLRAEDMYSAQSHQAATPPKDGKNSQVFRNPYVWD
Chain of UniProt P41143 (whole entry, looked up): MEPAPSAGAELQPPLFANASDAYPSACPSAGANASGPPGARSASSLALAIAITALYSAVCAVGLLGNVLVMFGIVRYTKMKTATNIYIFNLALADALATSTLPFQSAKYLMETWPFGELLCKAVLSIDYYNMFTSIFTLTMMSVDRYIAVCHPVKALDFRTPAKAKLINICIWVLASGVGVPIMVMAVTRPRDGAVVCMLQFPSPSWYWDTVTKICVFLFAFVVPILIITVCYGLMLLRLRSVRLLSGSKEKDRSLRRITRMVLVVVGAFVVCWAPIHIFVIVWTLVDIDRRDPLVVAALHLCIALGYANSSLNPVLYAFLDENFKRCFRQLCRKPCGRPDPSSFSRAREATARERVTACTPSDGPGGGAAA

Set 1
SMILES: CCN(c1nc(N)c(C(=O)N=C(N)N)nc1Cl)C(C)C
Observed: β-arrestin recruitment
Mode: agonist
Method: PRESTO-Tango
Concentration: 10 µM
Reference: untreated
target	fold over basal
Metabotropic glutamate receptor 1 (GRM1, Homo sapiens, UniProt Q13255)	0.99 fold
Vasoactive intestinal polypeptide receptor 1 (VIPR1, Homo sapiens, UniProt P32241)	4.45 fold
GPRC5C (Homo sapiens, UniProt Q9NQ84)	0.52
G-protein coupled receptor 15 (Homo sapiens, UniProt P49685)	0.93
5-hydroxytryptamine receptor 1B (HTR1B, Homo sapiens, UniProt P28222)	0.88
Substance-K receptor (TACR2, Homo sapiens, UniProt P21452)	0.97 fold
Glucose-dependent insulinotropic receptor (GPR119, Homo sapiens, UniProt Q8TDV5)	0.78
G-protein coupled receptor family C group 5 member B (GPRC5B, Homo sapiens, UniProt Q9NZH0)	0.65
Delta-type opioid receptor (OPRD1, Homo sapiens, UniProt P41143)	5.82
D(2) dopamine receptor (DRD2, Homo sapiens, UniProt P14416)	0.64

Set 2
Compound: CN(C)c1ncnc(-c2ccc3nc(Nc4cc(CN5CCN(C(=O)CC(F)(F)F)CC5)ccn4)[nH]c3c2)c1Cl
Observed: cell-free assay
Method: competition with immobilised ligand
Concentration: 1 µM
target	remaining binding
Tyrosine-protein kinase ABL1, phosphorylated (ABL1, Homo sapiens, UniProt P00519)	51%
Tyrosine-protein kinase Tec (TEC, Homo sapiens, UniProt P42680)	100%
Rho-associated protein kinase 2 (ROCK2, Homo sapiens, UniProt O75116)	91%
Calcium/calmodulin-dependent protein kinase type 1 (CAMK1, Homo sapiens, UniProt Q14012)	100%
Cyclin-G-associated kinase (GAK, Homo sapiens, UniProt O14976)	82%
Ephrin type-A receptor 1 (EPHA1, Homo sapiens, UniProt P21709)	100%
Tyrosine-protein kinase ABL1, phosphorylated (ABL1, Homo sapiens, UniProt P00519, Y253F)	37%
Serine/threonine-protein kinase VRK2 (VRK2, Homo sapiens, UniProt Q86Y07)	88%

Set 3
Target: Diamine acetyltransferase 1 (Homo sapiens, UniProt P21673)
Mode: inhibitor
Concentration: 10 µM
Reference: control
Construct (P21673 1-171): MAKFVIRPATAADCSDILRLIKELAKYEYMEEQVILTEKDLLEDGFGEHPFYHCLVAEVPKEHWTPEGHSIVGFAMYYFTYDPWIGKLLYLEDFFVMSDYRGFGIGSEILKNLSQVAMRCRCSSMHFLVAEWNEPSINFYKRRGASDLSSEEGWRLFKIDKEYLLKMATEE
Structure (SMILES)	remaining activity [%]
CCCCCCCCCCCCCCCCCCCCCC(=O)OC	96.6
C=CC(C)(C)c1cc(/C=C/C(=O)c2ccc(O)cc2)c(OC)cc1O	83.4
CC1=CC(=O)CC(C)(C)C1(O)/C=C/C(C)=C\C(=O)O (racemic)	85
C=CCc1ccc(OC(C)=O)c(OC)c1	87.2
NCCCC(=O)O	104
COc1ccccc1/C=C/C(=O)O	102
OC[C@H]1O[C@H](O)[C@H](O)[C@@H](O)[C@@H]1O	102
COc1cc2ccc(=O)oc2cc1O[C@@H]1O[C@H](CO)[C@@H](O)[C@H](O)[C@H]1O	103

Set 4
Target: Mitogen-activated protein kinase kinase kinase 8 (MAP3K8, Homo sapiens, UniProt P41279)
Chain of UniProt P41279 (whole entry, looked up): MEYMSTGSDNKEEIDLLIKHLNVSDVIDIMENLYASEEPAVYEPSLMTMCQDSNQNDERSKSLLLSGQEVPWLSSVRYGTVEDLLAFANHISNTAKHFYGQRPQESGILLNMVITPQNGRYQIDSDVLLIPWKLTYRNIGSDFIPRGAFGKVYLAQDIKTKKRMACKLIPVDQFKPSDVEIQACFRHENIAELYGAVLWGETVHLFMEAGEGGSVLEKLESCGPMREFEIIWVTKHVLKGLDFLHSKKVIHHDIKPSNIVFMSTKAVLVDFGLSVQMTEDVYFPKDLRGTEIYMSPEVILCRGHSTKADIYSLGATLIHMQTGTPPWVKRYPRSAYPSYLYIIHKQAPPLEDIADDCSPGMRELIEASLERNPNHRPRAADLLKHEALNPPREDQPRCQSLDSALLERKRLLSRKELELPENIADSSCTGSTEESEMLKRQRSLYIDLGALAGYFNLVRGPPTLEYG
Observed: enzyme activity
Mode: inhibitor
Concentration: 0.5 µM
Reference: control
SMILES	remaining activity [%]
COc1ccc(COc2ccc(Cc3cnc(N)nc3N)cc2OC)cc1	98.4
CCCCc1c(-c2ccc(O)cc2)[nH]c2nccnc12	111
CNc1cc2c(Nc3cccc(Br)c3)ncnc2cn1	90.2
NC(=O)c1ccc(-c2nc(-c3ccc4c(c3)OCCO4)c(-c3ccccn3)[nH]2)cc1	103
O=C1Nc2ccc(Br)cc2/C1=C/c1cc2c([nH]1)CCCC2	105
O=C1Nc2ccccc2/C1=C\c1c(Cl)[nH]c2ccccc12	94.3
c1ccc(-c2n[nH]c3c2oc2ccccc23)cc1	105
O=C1c2ccccc2-c2nc3nnnn3nc21	75.9
O=C1NC(=O)c2c1c1c3ccccc3[nH]c1c1[nH]c3cc(Br)ccc3c21	89
CCCNC(=O)Nc1ccc(Oc2ncnc3cc(OC)c(OC)cc23)cc1Cl	104
O=C(c1cc2cc(O)ccc2[nH]1)c1cc2cc(O)ccc2[nH]1	93
CC(C)n1cnc2c(Nc3cccc(Cl)c3)nc(NCCO)nc21	92.2
O=C1Cc2c([nH]c3ccc(Br)cc23)-c2ccccc2N1	98.6
COc1cc2c(Nc3ccc(Br)cc3F)ncnc2cc1OCC1CCN(C)CC1	97.3
NC(=O)c1cccc(-c2cc(Nc3ccc(OC(F)(F)F)cc3)ncn2)c1	96.8
Cc1ccc(S(=O)(=O)/C=C/C#N)cc1	96.2
CC(C)N(CCC(=O)c1ccc2ccccc2c1)Cc1ccccc1	94.6
CC(C)(C)c1nc2c3cc[nH]c(=O)c3c3cc(F)ccc3c2[nH]1	128
O=Nc1c(-c2c(O)[nH]c3cc(Br)ccc23)[nH]c2ccccc12	101
C[C@@H](N)[C@H]1CC[C@H](C(=O)Nc2ccncc2)CC1	98.4
N#CC(c1ccnc(NCCc2cccnc2)n1)c1nc2ccccc2s1 (stereo not drawn)	96
CCCCc1c(-c2ccc(OC)cc2)[nH]c2nccnc12	98.2
Clc1ccc(Nc2nnc(Cc3ccncc3)c3ccccc23)cc1	98.2
COc1cccc(-c2cc(=O)c3ccccc3o2)c1N	85.7
CN1CCN(c2ccc3nc(-c4c(N)c5c(F)cccc5[nH]c4=O)[nH]c3c2)CC1	107

Repeated from above (set 2):
target	remaining binding
Rho-associated protein kinase 2 (ROCK2, Homo sapiens, UniProt O75116)	91%
Cyclin-G-associated kinase (GAK, Homo sapiens, UniProt O14976)	82%
Tyrosine-protein kinase ABL1, phosphorylated (ABL1, Homo sapiens, UniProt P00519)	51%
Ephrin type-A receptor 1 (EPHA1, Homo sapiens, UniProt P21709)	100%
Calcium/calmodulin-dependent protein kinase type 1 (CAMK1, Homo sapiens, UniProt Q14012)	100%
Serine/threonine-protein kinase VRK2 (VRK2, Homo sapiens, UniProt Q86Y07)	88%
Tyrosine-protein kinase ABL1, phosphorylated (ABL1, Homo sapiens, UniProt P00519, Y253F)	37%
